Published values from different studies.
A part holds a random share of what one study measured. Changes are numbered by the printed parent chain.

Sample 1
Target: CCND2, cyclin fold, Cln2 fusion (human)
Method: yeast growth competition, sequencing
Matrix: yeast
Setting: weak parent motif
Relative to: not given
Direction: higher = stronger binding
Starting sequence: viral docking peptide; TSVRRALFTGGSD; partner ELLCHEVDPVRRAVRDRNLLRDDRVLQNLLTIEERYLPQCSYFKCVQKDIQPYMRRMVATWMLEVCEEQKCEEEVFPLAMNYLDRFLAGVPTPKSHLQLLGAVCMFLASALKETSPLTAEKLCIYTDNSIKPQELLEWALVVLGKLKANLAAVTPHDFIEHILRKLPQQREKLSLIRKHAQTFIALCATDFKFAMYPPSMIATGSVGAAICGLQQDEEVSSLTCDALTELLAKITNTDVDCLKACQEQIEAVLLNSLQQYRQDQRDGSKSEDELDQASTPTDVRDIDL
Variant	normalised enrichment score
A6G	0.202
G10N	0.442
S2K	-0.0469
L7T	0.285
R5T	-0.0753
A6T	-0.123
L7N	0.326
L7K	0.0668

Sample 2
Target: UDP-N-acetylglucosamine--peptide N-acetylglucosaminyltransferase 110 kDa subunit (OGT, Homo sapiens, UniProt O15294)
Read-out: binding
Method: phage display NGS
Molecule type: peptide
Tested at: concentration not given
Setting: panning round 2
Relative to: input library
Residues (O15294 1-1046): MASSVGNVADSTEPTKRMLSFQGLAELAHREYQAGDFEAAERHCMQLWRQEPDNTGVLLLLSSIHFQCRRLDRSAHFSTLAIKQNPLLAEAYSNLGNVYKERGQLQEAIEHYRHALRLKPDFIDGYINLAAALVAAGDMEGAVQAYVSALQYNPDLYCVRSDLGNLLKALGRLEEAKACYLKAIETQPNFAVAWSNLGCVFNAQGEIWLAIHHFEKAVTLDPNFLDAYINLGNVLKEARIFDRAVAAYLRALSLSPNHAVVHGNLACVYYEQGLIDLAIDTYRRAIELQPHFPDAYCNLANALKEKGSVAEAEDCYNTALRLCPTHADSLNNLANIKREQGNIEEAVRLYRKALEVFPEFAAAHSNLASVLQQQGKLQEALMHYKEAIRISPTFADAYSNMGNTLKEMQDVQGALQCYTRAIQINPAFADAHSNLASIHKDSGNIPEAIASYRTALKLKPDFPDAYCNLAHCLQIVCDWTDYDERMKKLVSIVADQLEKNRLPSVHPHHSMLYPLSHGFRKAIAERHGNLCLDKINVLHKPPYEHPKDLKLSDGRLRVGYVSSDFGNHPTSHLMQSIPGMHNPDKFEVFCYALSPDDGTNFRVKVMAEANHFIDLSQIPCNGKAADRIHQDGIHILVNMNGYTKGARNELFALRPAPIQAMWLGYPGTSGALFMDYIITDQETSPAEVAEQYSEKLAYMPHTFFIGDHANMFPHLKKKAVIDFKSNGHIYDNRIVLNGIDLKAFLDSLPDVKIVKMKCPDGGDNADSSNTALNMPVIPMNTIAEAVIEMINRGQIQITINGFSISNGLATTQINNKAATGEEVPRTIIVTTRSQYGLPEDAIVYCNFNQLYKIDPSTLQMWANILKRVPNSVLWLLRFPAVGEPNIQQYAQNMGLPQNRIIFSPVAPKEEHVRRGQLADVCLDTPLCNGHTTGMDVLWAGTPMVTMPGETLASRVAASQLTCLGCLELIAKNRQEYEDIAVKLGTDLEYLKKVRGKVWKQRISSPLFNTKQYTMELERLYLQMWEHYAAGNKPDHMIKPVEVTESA
Molecule	enrichment fold change
HSQHMFEHEHVVKA	4.81
GHHTHREYGYPSYQH	8.99
GMTHQYHLHHDSGFQ	6.2
KDIRQDYLPFYQITV	28.2

Sample 3
Target: tungstate, free oxyanion
Method: microfluidic competitive inhibition
Matrix: in vitro, cell-free expressed
Tested at: not given
Setting: derived from inhibition constants, unchanged parent 2230 nM
Direction: lower = stronger binding
Starting sequence: PafA, mature enzyme, eGFP fusion (Elizabethkingia meningoseptica, UniProt Q9KJX5); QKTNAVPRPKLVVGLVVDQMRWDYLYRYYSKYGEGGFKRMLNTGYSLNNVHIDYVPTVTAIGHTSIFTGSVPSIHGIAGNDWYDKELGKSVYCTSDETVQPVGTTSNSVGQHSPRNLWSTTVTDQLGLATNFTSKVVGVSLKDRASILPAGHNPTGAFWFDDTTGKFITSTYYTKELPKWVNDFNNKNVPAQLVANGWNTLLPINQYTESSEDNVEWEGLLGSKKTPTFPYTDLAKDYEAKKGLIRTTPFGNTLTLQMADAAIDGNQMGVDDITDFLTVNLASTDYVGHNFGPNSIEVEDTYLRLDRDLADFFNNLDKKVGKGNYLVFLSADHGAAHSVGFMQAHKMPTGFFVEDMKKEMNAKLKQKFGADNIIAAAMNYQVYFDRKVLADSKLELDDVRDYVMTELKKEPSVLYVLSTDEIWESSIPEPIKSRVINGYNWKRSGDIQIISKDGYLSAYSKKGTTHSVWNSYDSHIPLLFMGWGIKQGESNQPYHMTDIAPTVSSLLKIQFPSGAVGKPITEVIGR
Variant	oxyanion analog dissociation constant [µM]
H75V	1.49
L456V	3.11
S412V	2.36
G463V	1.4
F328V	2
A5V	2.14
S106G	1.94
D260V	2.2

Single results of other studies
SMILES	target	assay	quantity	result
COC(=O)c1cc(N(C)C(=O)c2ccn3ncc(-c4ccc(C(=O)O)cc4)c3c2)ccc1Cl	Progesterone receptor (PGR, Homo sapiens, UniProt P06401)	cell-free assay	IC50	> 30 µM

For quick reference, copied from above (sample 1):
Variant	normalised enrichment score
A6G	0.202
L7T	0.285
